Published values from different studies.
Parts stem from different laboratories: compare values within a part only.

Study 1
Target: Prothrombin, mature alpha-thrombin (F2, Homo sapiens, UniProt P00734)
Technique: aptamer microarray, sandwich
Form: DNA with 2'F-ANA
Matrix: in vitro
Tested at: 200 nM
Setting: whole 15-mer aptamer, many near background
Added: Cy3 exosite-II aptamer, 400 nM
Direction: higher = stronger binding
Measurement: mean fluorescence intensity
Oligonucleotide: GGTTGGTGTGGTTGG
2'F-ANA at 2 5 6 7 8 14 15: 46.3 a.u.
2'F-ANA at 1 2 4 9 13 14 15: 52.2 a.u.
2'F-ANA at 1 2 3 6 7 8 9 11 12 13 14 15: 108 a.u.
2'F-ANA at 1 2 3 5 6 8 9 10 12 14: 62.5 a.u.
2'F-ANA at 1 2 4 5 6 7 9 12 14 15: 54.4 a.u.
2'F-ANA at 1 5 6 9 10 12 13 14 15: 47.3 a.u.
2'F-ANA at 1 2 3 4 6 7 9 15: 130 a.u.
2'F-ANA at 1 4 6 12: 268 a.u.

Study 2
Target: Centromere-binding protein 1, full length, N-terminal tag (CBF1, Saccharomyces cerevisiae, UniProt P17106, residues 1-351)
UniProt P17106, sequence (whole entry, looked up): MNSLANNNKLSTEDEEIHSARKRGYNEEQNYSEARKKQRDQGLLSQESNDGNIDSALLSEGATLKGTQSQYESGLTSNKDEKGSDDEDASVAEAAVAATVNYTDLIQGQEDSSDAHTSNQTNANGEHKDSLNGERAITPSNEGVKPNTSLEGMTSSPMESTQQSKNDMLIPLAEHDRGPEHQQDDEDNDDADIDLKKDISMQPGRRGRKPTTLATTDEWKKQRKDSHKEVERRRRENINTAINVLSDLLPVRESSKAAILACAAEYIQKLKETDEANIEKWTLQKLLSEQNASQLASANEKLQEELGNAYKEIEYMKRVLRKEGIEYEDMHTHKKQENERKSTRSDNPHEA
Technique: protein-binding microarray
Form: double-stranded DNA, one strand shown
Matrix: in vitro
Tested at: 0.8 µM
Setting: whole 60-bp probe, no competitor
Direction: higher = stronger binding
Measurement: fluorescence intensity
Constant ends, left off below: … GTCTTGATTCGCTTGACGCTGCTG
TGTACGAAGCTATGTCACCACGATATAGTAGTTAGG: 549 a.u.
CTAATTAGAAATAGCGACATCATGACCAGCTTATTC: 648 a.u.
GAATAGTTTTGAGTTCACCTGTTGGTGCAGTATTAG: 515 a.u.
CCTAACTACTATAGTATCGTGACATAGCTTCGTACA: 1300 a.u.
GAACCTAAAAATGTTCACGTGTGACTGCTCCATTAG: 3810 a.u.
GAAAATAGGCACAATCACACTTAAACGTATACGTAG: 529 a.u.
GAAGCAGTAATTGTGCACATGCAGTTTTTGTTTTAG: 769 a.u.
GAAAACATCACGATGCACGAGCACTGTTTCCAATAG: 756 a.u.

Study 3
Target: TAR DNA-binding protein 43, full length, His tag (TARDBP, Homo sapiens, UniProt Q13148, residues 1-414)
Technique: RNA Bind-n-Seq
Form: RNA
Matrix: in vitro
Tested at: 20 nM
Setting: 6-mer, flanks averaged, single round
Added: 150 mM KCl
Relative to: input library
Direction: higher = stronger binding
Measurement: 6-mer enrichment (R)
AUGGCG: 1.51
GCUUGA: 0.829
UCAGUU: 0.593
CUCGCA: 0.609
UCUUUU: 0.691
AAGUAG: 0.862
UCACCC: 0.645
AACCUC: 0.57

Further values, each from its own experiment
CC1=NN(c2ccc3nncn3n2)C(=N)C1C(O)C(F)(F)F (stereo not shown) — remaining compound (human, microsomes or S9; 2 µM, 0.5 h): 85.5%

A few entries again (study 1):
2'F-ANA at 1 2 3 5 6 8 9 10 12 14: 62.5 a.u.
2'F-ANA at 1 4 6 12: 268 a.u.
